Results of several laboratories.
Each line is one published result; not all experiments were run side by side. Values joined by “and” are separate records of one study, mostly repeats; a detail may differ.

O=C(O)CNC(=O)Cc1ccccc1  sarcomere length (ventricular cardiomyocytes, C57BL/6 mouse; dose not given, 0.3 s): 1.71 µm
CCn1cc(-c2cc(Cn3ccoc3=N)cc3c2CCN([C@@H](C)c2cc(OC)ccn2)C3=O)c(C(F)(F)F)n1  EC50 (SU-DHL-6; cell growth, inhibitor; 120 h): 593 nM
COc1ccc2[nH]cc(CC(=O)O)c2c1  log2 fold change (binding, MIDAS equilibrium dialysis LC-MS; A2AR-BRIL thermostabilized; concentration not given; relative to: no-protein control): -0.175
CC(C)n1ncc2c(C(=O)NCC3(C)CNC3)cc(C3CC3)nc21  cell protection (coxsackievirus A16; RD; 0.15 µM): 6.25% and 3.19%
COc1cnc2cccc(N3CCc4c(cc(Cn5ccnc5C)cc4-c4cn(C)nc4C(F)(F)F)C3=O)c2c1  EC50 (NCI-H1838; cell growth, inhibitor; 120 h): 22.7 nM
NC(CCS)C(=O)O (racemic)  log2 fold change (binding, MIDAS equilibrium dialysis LC-MS; A2AR-BRIL thermostabilized; concentration not given; relative to: no-protein control): -0.00185
CSc1cc(Oc2ccnc3[nH]c(=O)cnc23)ccc1NC(=O)Nc1cc(C(C)(C)C)nn1-c1ccccc1  phospho ratio (patient-derived cell line clone A; RPPA, measured: phosphorylated Rb; human; 1 µM, 4 h; relative to: DMSO): 0.7
CC(C)(CO)[C@@H](O)C(=O)NCCC(=O)O  log2 fold change (binding, MIDAS equilibrium dialysis LC-MS; A2AR-BRIL thermostabilized; concentration not given; relative to: no-protein control): -0.132
N#Cc1ccc2c(c1)[C@H]1CCCN(C(=O)c3ccc4[nH]cnc4c3)[C@H]1C2  total urinary corticosteroids (human, urine; 10 mg, 24 h, day 1 over day -1; relative to: placebo and baseline): 49.8 % change
O=C(O)c1cc(=O)[nH]c(=O)[nH]1  log2 fold change (binding, MIDAS equilibrium dialysis LC-MS; A2AR-BRIL thermostabilized; concentration not given; relative to: no-protein control): -0.0106
Cn1cc(-c2ccc(-c3cncc(Cl)c3N3CCC4(CCNC4=O)CC3)cc2)cn1  log2 fold change (COLO 205; gene expression, microarray, measured: OAS2 mRNA; concentration not given, 6 h; relative to: untreated cells): 2.45
CCn1cc(-c2cc(Cn3ccnc3)cc3c2CCN([C@H](c2cc(OC)ccn2)C2CC2)C3=O)c(C(F)(F)F)n1  EC50 (RERFGC1B; cell growth; 120 h): 2250 nM

For quick reference, copied from above:
Cn1cc(-c2ccc(-c3cncc(Cl)c3N3CCC4(CCNC4=O)CC3)cc2)cn1  log2 fold change (COLO 205; gene expression, microarray, measured: OAS2 mRNA; concentration not given, 6 h; relative to: untreated cells): 2.45
CCn1cc(-c2cc(Cn3ccnc3)cc3c2CCN([C@H](c2cc(OC)ccn2)C2CC2)C3=O)c(C(F)(F)F)n1  EC50 (RERFGC1B; cell growth; 120 h): 2250 nM
